Experimental data collected from several papers.
Protocols differ between the studies behind these lines.
PIK3CA: Phosphatidylinositol 4,5-bisphosphate 3-kinase catalytic subunit alpha isoform (PIK3CA, Homo sapiens, UniProt P42336)
PIK3CA E545K: Phosphatidylinositol 4,5-bisphosphate 3-kinase catalytic subunit alpha isoform (PIK3CA, Homo sapiens, UniProt P42336, E545K)

SMILES	target	test	setting	scale	endpoint	result
Cc1cccc(O[C@H]2CCC[C@@H](C(C)CNCc3ccncc3)C2)c1 (relative stereo)	PIK3CA	enzyme activity, inhibitor	1 µM	–	inhibition	2%
CC(C)=CC1OC(C)(C)C2C=C3C(=O)C(Cl)=CC(O)C3C3C(O)C4OC4C(=O)C132 (centres unmarked)	PIK3CA E545K	cell-free assay, competition with immobilised ligand	10 µM	–	remaining binding	52%
Cc1nc2c(F)cc(-c3nc(Nc4ccc(CNC(=O)CCCCCCC(=O)NO)cc4)ncc3F)cc2n1C(C)C	Phosphatidylinositol 4,5-bisphosphate 3-kinase catalytic subunit alpha isoform, with p85 (PIK3CA, Homo sapiens, UniProt P42336)	enzyme activity, inhibitor	1 µM	–	inhibition	30%
C=C1CCCCCCCCCC(CO)C1=O (centres unmarked)	PIK3CA	cell-free assay	10 µM	–	remaining signal	76%
Cc1ccc(-c2c(/C=C(\C#N)C(=O)NC(C)C)n(CCCO)c3ncnc(N)c23)cc1	PIK3CA (Homo sapiens, UniProt P42336, I800L)	cell-free assay, competition with immobilised ligand	1 µM	–	remaining binding	77%
CNC1C[S+]2CC[S+]3CC[S+](C1)[Ru-4]321([N]=C=S)[n]2c3ccc(OC)cc3c3c4c(c5cc(F)c[n+]1c5c32)C(=O)NC4=O (centres unmarked)	PIK3CA (Homo sapiens, UniProt P42336, H1047L)	KinomeScan	0.1 µM	relative to: untreated	remaining binding	95%
C=CC(=O)N1CCCC(n2c(=O)c3ncccc3n(Cc3ccc(Oc4ccccc4)cc3)c2=O)C1 (centres unmarked)	PIK3CA (Homo sapiens, UniProt P42336, M1043I)	cell-free assay, competition with immobilised ligand	1 µM	–	remaining binding	100%
O=c1c(-c2ccc(Cl)c(CN3CCOCC3)c2)coc2cc(O)ccc12	Phosphatidylinositol 4,5-bisphosphate 3-kinase catalytic subunit alpha isoform, with p85 (PIK3CA, Homo sapiens, UniProt P42336, E542K)	enzyme activity, inhibitor	1 µM	–	remaining activity	100%
COc1c(Cl)cccc1Nc1c(-c2ccncc2C#C[C@@]2(C)CCCN2C(=O)/C=C/CN(C)C)[nH]c2c1C(=O)NCC2	PIK3CA E545K	binding, competition with immobilised ligand	3 µM	–	remaining binding	76%
CNC(=O)C1CCN(c2cc(C)c(F)cc2NC(=O)c2ccc(-c3cc(O)ccc3C)c(C)c2)CC1	PIK3CA E545K	binding, competition with immobilised ligand	1 µM	–	remaining binding	97%
CCN1CCN(Cc2ccc(C(=O)Nc3ccc(C)c(NCc4cnc5[nH]ccc5c4OC)c3)cc2C(F)(F)F)CC1	PIK3CA (Homo sapiens, UniProt P42336, H1047Y)	binding, competition with immobilised ligand	1 µM	–	remaining binding	71%
